# Assay results gathered from unrelated publications.
# Protocols differ between the studies behind these lines. Several values in a cell are separate wells, animals, samples, runs or records.
# Target: Mitogen-activated protein kinase 9 (MAPK9, Homo sapiens, UniProt P45984)
Structure (SMILES),test,system,setting,scale,measurement,result
Cc1cc(NC(=O)c2cccc(N)c2)ccc1Nc1nccc(-c2cccnc2)n1,"enzyme activity, inhibitor",,"0.06097 µM, unit not given",relative to: vehicle,remaining activity,0.979
NC(=O)[C@@H](O)C[C@H]1CCc2sc3ncnc(O[C@H]4CC[C@H](N5CCOCC5)CC4)c3c21,"enzyme activity, inhibitor",,10 µM,,inhibition,-3%
COc1cc(Nc2nc(C)cc(-c3cnn4nc(OC)ccc34)n2)cc(C(F)(F)F)c1,KINOMEscan,,"1 µM, JNK2",relative to: DMSO,remaining binding,82%
C#CCOC(=O)[C@]1(C)C=C(C(=O)Nc2cccc(C(=O)Nc3ccc(C)c(Nc4nccc(-c5cccnc5)n4)c3)c2)C(=O)CC1,"enzyme activity, inhibitor",,"0.02032 µM, unit not given",relative to: vehicle,remaining activity,0.818
C=CC(=O)Nc1cccc(-c2cnc3[nH]cc(C(=O)NC(C)(C)C)c3n2)c1,kinase activity,,0.1 µM,,inhibition,-13% and 1%
CCN1CCN(Cc2ccc(C(=O)Nc3ccc(C)c(NCc4cnc5[nH]ccc5c4OC)c3)cc2C(F)(F)F)CC1,"binding, competition with immobilised ligand",,1 µM,,remaining binding,9.2%
Cc1cnc2nc1Nc1cccc(c1)COC/C=C/COCc1cc(ccc1OCCN1CCOCC1)N2,,,"concentration not given, kinase construct JNK2",relative to: control,binding,60%
CC(=O)Nc1ccc(-c2ccnc(NCC3CCC3)n2)cc1,"cell-free assay, competition with immobilised ligand",,10 µM,,remaining binding,17%
CN1CCN(Cc2ccc(NC(=O)c3cccc(C#Cc4cnc(N)c5ncccc45)c3)cc2C(F)(F)F)CC1,"cell-free assay, competition with immobilised ligand",,0.5 µM,,remaining binding,4.4%
CCn1cc(C(=O)O)c(=O)c2c(N)c(F)c(NC3CCCCC3)cc21,kinase activity,,"0.1 µM, together with: ATP at Km",,inhibition,8.4%
C=C1CCCCCCCCCC(CO)C1=O (centres unmarked),"cell-free assay, competition with immobilised ligand",,10 µM,,remaining binding,100%
Cc1cccc(-c2ccc3nc(NC(=O)C4CCCCC4)nn3c2)c1,"enzyme activity, Dundee kinase panel",,10 µM,,remaining activity,82%
C=CC(=O)N1CCCC(n2c(=O)c3ncccc3n(Cc3ccc(Oc4ccccc4)cc3)c2=O)C1 (centres unmarked),"cell-free assay, competition with immobilised ligand",,1 µM,,remaining binding,69%
N[C@H]1CC[C@H](Nc2nccc(-c3cccnc3Oc3ccc(NC(=O)NC4CC4)c4ccccc34)n2)CC1,kinobead competition pulldown,HEK293/HCT116 lysate mixture,"10 µM, 1 h, 4 °C",lower = stronger competition,log2 LFQ intensity,22.7 and 22.5 and 19.9 and 23.7
CCN1CCN(Cc2ccc(NC(=O)c3ccc(C)c(NC(=O)c4cncc(-c5cccs5)c4)c3)cc2C(F)(F)F)CC1,"binding, competition with immobilised ligand",,1 µM,,remaining binding,24%
O=C(Cc1ccc(OCc2ccccc2)cc1)NC1(C(=O)O)CCN(C(=O)c2ccc(-c3cccc(Cl)c3)cc2)CC1,"enzyme activity, inhibitor",,10 µM,,activity vs control,94%
C=CC(=O)N1CCc2ccc(-n3c(=O)ccc4cnc5ccc(-c6cnn(C)c6)cc5c43)cc21,KINOMEscan,,1 µM,relative to: DMSO control,remaining binding,79%
COC(=O)[C@@]1(C)C=C(C(=O)Nc2cccc(C(=O)Nc3ccc(Nc4nccc(-c5cccnc5)n4)c(C)c3)c2)C(=O)CC1,"enzyme activity, inhibitor",,"0.1829 µM, unit not given",relative to: vehicle,remaining activity,0.393
CNC(=O)C[C@H](Cc1ccc(C#N)cc1)NC(=O)c1cc(-c2ccc(CN[C@H](C)c3ccc(C)cc3)o2)ccc1Cl,"enzyme activity, inhibitor",,1 µM,,activity vs control,94%
Cc1cccc(O[C@H]2CCC[C@@H](C(C)CNCc3ccncc3)C2)c1 (relative stereo),"kinase activity, kinome panel screening",,1 µM,,inhibition,2%
